Measured values from different studies.
Parts stem from different laboratories: compare values within a part only.

Series 1
Target: Sal-like protein 4, full length isoform A (SALL4, Homo sapiens, UniProt Q9UJQ4, residues 1-1053)
Sequence of UniProt Q9UJQ4 (whole entry, looked up): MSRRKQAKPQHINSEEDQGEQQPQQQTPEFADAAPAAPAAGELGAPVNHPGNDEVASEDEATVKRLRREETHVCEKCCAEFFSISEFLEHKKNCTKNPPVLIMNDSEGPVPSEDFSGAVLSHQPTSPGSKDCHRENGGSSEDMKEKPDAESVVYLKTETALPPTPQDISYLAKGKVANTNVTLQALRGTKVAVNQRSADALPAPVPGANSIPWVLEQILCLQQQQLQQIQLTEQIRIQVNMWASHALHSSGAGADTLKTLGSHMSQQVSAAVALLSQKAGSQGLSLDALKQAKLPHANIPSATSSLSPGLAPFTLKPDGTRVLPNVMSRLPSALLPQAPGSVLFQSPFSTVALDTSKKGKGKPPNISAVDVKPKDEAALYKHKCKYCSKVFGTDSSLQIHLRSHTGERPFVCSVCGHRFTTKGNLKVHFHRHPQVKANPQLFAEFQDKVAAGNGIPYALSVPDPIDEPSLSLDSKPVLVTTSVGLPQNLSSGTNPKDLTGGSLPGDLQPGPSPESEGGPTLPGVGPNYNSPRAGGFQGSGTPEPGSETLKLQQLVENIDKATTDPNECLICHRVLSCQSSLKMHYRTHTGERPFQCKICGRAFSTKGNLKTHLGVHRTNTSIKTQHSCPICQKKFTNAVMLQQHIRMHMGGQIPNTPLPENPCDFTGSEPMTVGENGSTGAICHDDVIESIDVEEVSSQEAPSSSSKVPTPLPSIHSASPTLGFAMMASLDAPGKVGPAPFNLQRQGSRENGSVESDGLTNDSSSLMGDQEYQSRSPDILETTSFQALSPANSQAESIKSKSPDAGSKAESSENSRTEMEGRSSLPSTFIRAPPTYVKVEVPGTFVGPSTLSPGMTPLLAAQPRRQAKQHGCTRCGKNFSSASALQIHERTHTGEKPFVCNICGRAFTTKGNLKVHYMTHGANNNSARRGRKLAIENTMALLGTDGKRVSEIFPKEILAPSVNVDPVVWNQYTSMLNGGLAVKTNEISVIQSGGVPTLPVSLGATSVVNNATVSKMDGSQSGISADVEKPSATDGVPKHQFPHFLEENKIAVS
Technique: universal PBM
Form: double-stranded DNA, one strand shown
Matrix: in vitro
Concentration: 600 nM
Setting: 8-mer, flanks averaged, mean of replicates
Reading: higher = stronger binding
| Oligonucleotide | E-score |
| --- | --- |
| AGGACGGG | -0.164 |
| CACCCAGC | -0.382 |
| GTTCAGAA | 0.0829 |
| GCCATCGC | -0.219 |
| CCTGGCCC | -0.387 |
| AGGTCGAA | -0.0677 |
| AGTCAAGA | -0.0301 |
| AATCCTCG | -0.178 |
| AAGAACAT | 0.193 |

Series 2
Target: Interferon regulatory factor 7, full length, phosphomimetic (IRF7, Homo sapiens, UniProt Q92985, residues 1-503, S101K/S471D/S472D/S475D/S476D/S477D/S483D/S484D/S487D)
Technique: protein-binding microarray
Form: double-stranded DNA, one strand shown
Matrix: in vitro
Concentration: 250 nM
Setting: 60-bp whole probe
Together with: salmon DNA 0.4 mg/ml
Reference: random background probes
Reading: higher = stronger binding
Shared flanks, not repeated: GCCTAGCAC … GTCTTGATTCGCTTGACGCTGCTG
Residues (chain): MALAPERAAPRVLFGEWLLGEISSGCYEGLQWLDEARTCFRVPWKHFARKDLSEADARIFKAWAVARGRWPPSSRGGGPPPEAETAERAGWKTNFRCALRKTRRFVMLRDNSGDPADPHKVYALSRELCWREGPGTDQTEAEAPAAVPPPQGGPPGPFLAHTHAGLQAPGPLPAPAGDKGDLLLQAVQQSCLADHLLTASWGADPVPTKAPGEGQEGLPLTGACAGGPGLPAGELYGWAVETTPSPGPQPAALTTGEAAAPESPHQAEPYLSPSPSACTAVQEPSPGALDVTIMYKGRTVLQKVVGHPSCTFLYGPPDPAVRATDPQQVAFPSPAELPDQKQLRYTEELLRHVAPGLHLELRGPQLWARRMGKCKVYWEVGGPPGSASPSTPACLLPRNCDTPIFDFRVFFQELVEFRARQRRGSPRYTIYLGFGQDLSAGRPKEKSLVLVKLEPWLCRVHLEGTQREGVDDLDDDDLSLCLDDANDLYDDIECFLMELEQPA
| Oligonucleotide | log fluorescence |
| --- | --- |
| TCATTTTTTTCTATATGACTGTGCTAG | 1.65 z-score |
| CACGGTATCGACACTGGGGACGTGCTA | -0.108 z-score |
| GGTCTTTCTGTTTTCTCCATGTGCTAG | 1.78 z-score |
| ACAGCAAGAGCTCAACGGGGGTGCTAG | -0.189 z-score |
| GACGGTATCGACTAACGGGACGTGCTA | 0.0814 z-score |
| TTAGGACTGGACTTTCGGTTAGTGCTA | 0.434 z-score |
| GACGGACTGGGTATCTGGACGTGCTAG | -0.795 z-score |

Series 3
Target: Histone acetyltransferase KAT6A, winged helix 1, GST fusion (KAT6A, Homo sapiens, UniProt Q92794, residues 1-85)
Technique: protein binding microarray
Form: double-stranded DNA, one strand shown
Matrix: in vitro
Concentration: not given
Setting: 8-mer, flanks averaged, mean of 2 arrays, mostly near background
Reference: not given
Reading: higher = stronger binding
Residues (chain): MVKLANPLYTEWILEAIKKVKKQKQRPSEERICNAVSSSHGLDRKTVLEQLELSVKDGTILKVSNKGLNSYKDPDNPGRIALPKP
| Oligonucleotide | E-score |
| --- | --- |
| GGAGATTA | 0.0688 |
| ACATTCTA | -0.207 |
| AACCACGC | 0.147 |
| GAGATGTA | -0.135 |
| GGCGCGAA | 0.269 |
| AATGCCAG | -0.0921 |

Single results of other studies
| Substance | target | assay | system | setting | how to read | quantity | value |
| --- | --- | --- | --- | --- | --- | --- | --- |
| PhoQ, residues 284 288 289 292 302 303 GLASVI | PhoP, residues 12 14 15 18 19 SYFRT (Escherichia coli, UniProt P23836) | Sort-seq, refers to: YFP reporter | E. coli | PhoQ-PhoP variant library, together with: 10 µM Mg2+ | reference: high Mg2+ state, higher = stronger signaling | fold induction | 1.46 |

Some of these lines once more (series 2):
| Oligonucleotide | log fluorescence |
| --- | --- |
| GGTCTTTCTGTTTTCTCCATGTGCTAG | 1.78 z-score |
| ACAGCAAGAGCTCAACGGGGGTGCTAG | -0.189 z-score |
| GACGGTATCGACTAACGGGACGTGCTA | 0.0814 z-score |
